Measured values gathered from unrelated publications.
Lines come from different studies, so protocols differ. ± gives the spread as reported.

| SMILES | assay | system | setting | logP |
| --- | --- | --- | --- | --- |
| CN(Cc1cnc2nc(N)nc(N)c2n1)c1ccc(C(=O)N[C@@H](CCC(=O)O)C(=O)O)cc1 |  |  |  | 0.94 |
| CCOC(=O)/C=C/C(=O)NNC(=O)CCc1ccccc1C(=O)N[C@H](C)c1cccc2ccccc12 |  |  |  | 3.4 |
| CC(C)=CCC/C(C)=C/C(=O)O.Cc1cc(/C=C/C#N)cc(C)c1Nc1ccnc(Nc2ccc(C#N)cc2)n1 |  | octanol/water | room temperature | 2.67 ± 0.01 |
| C[C@@H](NC(=O)c1ccccc1CCC(=O)NNC(=O)/C=C/C(=O)OCCC(F)(F)F)c1cccc2ccccc12 |  |  |  | 3 |
| N=C(N)c1ccc2cc(C(=O)Nc3ccc4c(c3)C(C3CCCCC3)=NCC4)ccc2c1 |  | octanol/buffer | pH 11, urokinase ligand set | 4.19 |
| C[C@@H](NC(=O)c1ccccc1CCC(=O)NNC(=O)/C=C/C(=O)OCc1ccc2ccccc2n1)c1cccc2ccccc12 |  |  |  | 5 |
| COc1ccc2ccc(C(=N)N)cc2c1-c1cnn(C(C)C)c1 |  | octanol/buffer | pH 11, urokinase ligand set | 2.09 |
| CCn1cc(C(=O)O)c(=O)c2ccc(C)nc21 | shake-flask, potentiometric | 1-octanol/water |  | 1.5 |
| C[C@@H](NC(=O)c1ccccc1CCC(=O)NNC(=O)/C=C/C(=O)OC1CCCCC1)c1cccc2ccccc12 |  |  |  | 4.9 |
| CCn1c(C(=O)N(C2CC2)C2CC2)cc2c3c(ncn3C)c(Nc3cc(C)n(C)n3)nc21 |  | octanol/water |  | 3.4 |
| O=C(NC1CCCCC1)c1nccc(Cl)c1O | shake-flask, potentiometric | 1-octanol/water |  | 2.9 |
| C=Cc1c(C)c2cc3nc(c4c5[nH]c(cc6nc(cc1[nH]2)C(C)=C6CC)c(C)c5C(=O)C4)[C@@H](CCC(=O)O)[C@@H]3C | shake flask | octanol/water 1:2 |  | 0.748 |
| CN1C(C(=O)Nc2ccccn2)=C(O)c2sccc2S1(=O)=O |  |  |  | 0.7 |
| CCc1ccccc1NC(=O)CSc1nnc(-c2cccc(OC)c2)n1C |  | octanol/buffer | pH 11 | 2.85 |
| CN1C(C(=O)Nc2nccs2)=C(O)c2ccccc2S1(=O)=O | shake-flask, potentiometric | 1-octanol/water |  | 2.2 |
| CCCCC(CC)COC(=O)CC(C(=O)OCC(CC)CCCC)S(=O)(=O)O.O=C(NCCCNc1nc(Nc2cccc(NC(=O)N3CCCC3)c2)ncc1I)c1cccs1 | shake flask | octanol/water |  | 3.3 ± 0.56 |
| CNC(=O)/C=C/C(=O)NNC(=O)CCc1ccccc1C(=O)N[C@H](C)c1cccc2ccccc12 |  |  |  | 2.4 |

| SMILES | assay | system | setting | logP |
| --- | --- | --- | --- | --- |
| [Cl][Ru][Cl].c1ccc(-c2ccccn2)nc1.c1ccc(-c2ccccn2)nc1.c1ccc(-c2ccccn2)nc1 | shake flask octanol-water |  | 50 µM, chloride salt | negative |
| O=C(O)c1c(O)c(-c2ccccc2)nc2ccccc12 | shake-flask, potentiometric | 1-octanol/water |  | 0.6 |
| CC(=Nc1ccc(N=Cc2cnccn2)cc1)N(C)C | shake flask | 1-octanol/PBS | 1 h, pH 7.4, 25 °C | 1.74 ± 0.03 |
| CC(C)OC(=O)/C=C/C(=O)NNC(=O)CCc1ccccc1C(=O)N[C@H](C)c1cccc2ccccc12 |  |  |  | 3.8 |
| O=C(CCCCCCC(=O)Nc1ccc(CC[18F])cc1)NO |  | octanol/PBS | pH 7.4 | 1.01 ± 0.02 |
| CN1C(C(=O)Nc2nnc(C(F)(F)F)s2)=C(O)c2ccccc2S1(=O)=O | shake-flask, potentiometric | 1-octanol/water |  | 4 |
| CC(C)C1c2cc(C3CC3c3cc(/C=C/C4CC4)c4cc(C(=N)N)ccc4c3)ccc2CCN1C (stereo not shown) |  | octanol/buffer | pH 11, urokinase ligand set | > 4.5 |
| CO[C@]1(C(=O)N[C@@H](C)c2ccc(-n3cc(F)cn3)nc2)CC[C@H](c2nc(C)cc(Nc3cc(C)[nH]n3)n2)CC1 |  | octanol/water |  | 3.87 |
| C=Cc1c(C)c2cc3nc(c4c5[nH]c(cc6nc(cc1[nH]2)C(C)=C6CC)c(C)c5C(=O)C4)[C@@H](CCC(=O)OC)[C@@H]3C | shake flask | octanol/water 1:1 |  | 0.879 |
| Nc1cc(F)ccc1NC(=O)c1ccc(CNC(=O)/C=C/c2cccnc2)cc1 |  | octanol/buffer | pH 11 | -2.1 |
| COC(=O)/C=C/C(=O)NNC(=O)CCc1ccccc1C(=O)N[C@H](C)c1cccc(-c2cncnc2)c1 |  |  |  | 1.9 |
| COc1cc(NC(=O)CSc2nncn2C)cc(OC)c1OC |  | octanol/buffer | pH 11, known kinase inactives set | 0.67 |
| Cc1nnc(C(=O)NC(C)(C)c2nc(C(=O)NCc3ccc(F)cc3)c(O)c(=O)n2C)o1 | shake-flask, potentiometric | 1-octanol/water |  | 1.7 |
| Cc1cc(C)c(S(=O)(=O)N(C)CC(=O)N2CCC(C(N)=O)CC2)c(C)c1 |  | octanol/buffer | pH 11, known kinase inactives set | 1.38 |
| CN1C(C(=O)Nc2ccccn2)=C(O)c2sc(Cl)cc2S1(=O)=O | shake-flask, potentiometric | 1-octanol/water |  | 2.3 |
| COC(=O)Nc1ccc2nc(C(=N)N)ccc2c1 |  | octanol/buffer | pH 11, urokinase ligand set | 1.71 |
| CC(=O)/C=C/C(=O)NNC(=O)CCc1ccccc1C(=O)N[C@H](C)c1cccc2ccccc12 |  |  |  | 2.8 |

Repeated from above:
| SMILES | assay | system | setting | logP |
| --- | --- | --- | --- | --- |
| N=C(N)c1ccc2cc(C(=O)Nc3ccc4c(c3)C(C3CCCCC3)=NCC4)ccc2c1 |  | octanol/buffer | pH 11, urokinase ligand set | 4.19 |
| C[C@@H](NC(=O)c1ccccc1CCC(=O)NNC(=O)/C=C/C(=O)OCc1ccc2ccccc2n1)c1cccc2ccccc12 |  |  |  | 5 |
| COc1ccc2ccc(C(=N)N)cc2c1-c1cnn(C(C)C)c1 |  | octanol/buffer | pH 11, urokinase ligand set | 2.09 |
